Measured values of several laboratories.
Each line is one published result; not all experiments were run side by side.
UCHL1: Ubiquitin carboxyl-terminal hydrolase isozyme L1 (UCHL1, Homo sapiens, UniProt P09936)
UniProt P09936, sequence (whole entry, looked up): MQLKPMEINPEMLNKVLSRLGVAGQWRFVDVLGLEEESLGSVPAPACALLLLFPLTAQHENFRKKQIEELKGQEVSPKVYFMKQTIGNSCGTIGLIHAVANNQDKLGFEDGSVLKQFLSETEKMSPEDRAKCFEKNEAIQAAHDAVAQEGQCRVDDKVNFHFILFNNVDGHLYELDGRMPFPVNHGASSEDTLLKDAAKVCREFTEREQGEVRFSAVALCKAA
UniProt Q8IYT8, sequence (whole entry, looked up): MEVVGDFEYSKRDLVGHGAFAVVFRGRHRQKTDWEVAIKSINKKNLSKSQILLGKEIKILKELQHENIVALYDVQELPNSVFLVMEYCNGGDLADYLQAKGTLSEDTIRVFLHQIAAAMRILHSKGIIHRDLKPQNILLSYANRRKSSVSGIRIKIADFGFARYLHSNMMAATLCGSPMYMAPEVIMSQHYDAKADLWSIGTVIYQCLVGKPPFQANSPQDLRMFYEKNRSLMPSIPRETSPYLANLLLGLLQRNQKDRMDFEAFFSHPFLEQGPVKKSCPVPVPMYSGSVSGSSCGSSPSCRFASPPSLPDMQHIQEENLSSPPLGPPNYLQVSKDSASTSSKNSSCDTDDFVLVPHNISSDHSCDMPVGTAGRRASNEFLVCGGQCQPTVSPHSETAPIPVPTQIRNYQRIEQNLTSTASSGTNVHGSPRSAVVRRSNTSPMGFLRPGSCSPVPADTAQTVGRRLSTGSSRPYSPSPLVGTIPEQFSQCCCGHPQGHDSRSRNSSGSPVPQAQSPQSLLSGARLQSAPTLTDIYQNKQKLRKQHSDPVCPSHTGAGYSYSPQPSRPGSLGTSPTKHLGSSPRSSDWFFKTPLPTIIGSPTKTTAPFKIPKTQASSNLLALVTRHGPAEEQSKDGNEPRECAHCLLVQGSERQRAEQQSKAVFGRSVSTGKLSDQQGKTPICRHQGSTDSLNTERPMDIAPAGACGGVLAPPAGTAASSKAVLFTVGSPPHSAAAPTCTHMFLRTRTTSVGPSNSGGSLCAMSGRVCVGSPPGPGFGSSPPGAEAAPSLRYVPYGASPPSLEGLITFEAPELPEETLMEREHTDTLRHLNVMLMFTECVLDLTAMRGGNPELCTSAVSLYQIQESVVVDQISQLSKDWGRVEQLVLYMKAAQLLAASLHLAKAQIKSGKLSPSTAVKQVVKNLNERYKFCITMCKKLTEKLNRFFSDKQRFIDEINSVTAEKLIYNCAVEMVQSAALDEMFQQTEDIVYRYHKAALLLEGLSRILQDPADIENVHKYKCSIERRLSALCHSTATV
UniProt Q86UE8, sequence (whole entry, looked up): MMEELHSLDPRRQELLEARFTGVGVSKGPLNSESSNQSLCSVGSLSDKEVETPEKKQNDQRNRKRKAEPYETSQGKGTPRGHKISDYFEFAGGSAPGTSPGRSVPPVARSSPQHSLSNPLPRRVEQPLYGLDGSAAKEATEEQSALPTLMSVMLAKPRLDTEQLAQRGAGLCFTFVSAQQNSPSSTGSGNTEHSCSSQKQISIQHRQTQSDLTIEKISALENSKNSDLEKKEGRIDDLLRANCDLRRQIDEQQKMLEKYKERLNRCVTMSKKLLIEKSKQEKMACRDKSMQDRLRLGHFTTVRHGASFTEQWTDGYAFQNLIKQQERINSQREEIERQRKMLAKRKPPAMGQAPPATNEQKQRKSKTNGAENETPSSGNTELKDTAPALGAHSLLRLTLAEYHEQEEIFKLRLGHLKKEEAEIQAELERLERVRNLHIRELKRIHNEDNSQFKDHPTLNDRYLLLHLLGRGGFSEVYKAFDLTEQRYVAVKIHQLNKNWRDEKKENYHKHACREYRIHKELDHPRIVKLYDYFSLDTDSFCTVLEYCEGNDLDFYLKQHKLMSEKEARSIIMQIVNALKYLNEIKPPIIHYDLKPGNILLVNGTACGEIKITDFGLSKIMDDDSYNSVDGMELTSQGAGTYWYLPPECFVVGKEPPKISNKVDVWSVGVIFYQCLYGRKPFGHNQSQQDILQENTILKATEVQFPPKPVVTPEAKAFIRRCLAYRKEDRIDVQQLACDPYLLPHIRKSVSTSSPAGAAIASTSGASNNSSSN
UniProt P42336, sequence (whole entry, unmodified, looked up): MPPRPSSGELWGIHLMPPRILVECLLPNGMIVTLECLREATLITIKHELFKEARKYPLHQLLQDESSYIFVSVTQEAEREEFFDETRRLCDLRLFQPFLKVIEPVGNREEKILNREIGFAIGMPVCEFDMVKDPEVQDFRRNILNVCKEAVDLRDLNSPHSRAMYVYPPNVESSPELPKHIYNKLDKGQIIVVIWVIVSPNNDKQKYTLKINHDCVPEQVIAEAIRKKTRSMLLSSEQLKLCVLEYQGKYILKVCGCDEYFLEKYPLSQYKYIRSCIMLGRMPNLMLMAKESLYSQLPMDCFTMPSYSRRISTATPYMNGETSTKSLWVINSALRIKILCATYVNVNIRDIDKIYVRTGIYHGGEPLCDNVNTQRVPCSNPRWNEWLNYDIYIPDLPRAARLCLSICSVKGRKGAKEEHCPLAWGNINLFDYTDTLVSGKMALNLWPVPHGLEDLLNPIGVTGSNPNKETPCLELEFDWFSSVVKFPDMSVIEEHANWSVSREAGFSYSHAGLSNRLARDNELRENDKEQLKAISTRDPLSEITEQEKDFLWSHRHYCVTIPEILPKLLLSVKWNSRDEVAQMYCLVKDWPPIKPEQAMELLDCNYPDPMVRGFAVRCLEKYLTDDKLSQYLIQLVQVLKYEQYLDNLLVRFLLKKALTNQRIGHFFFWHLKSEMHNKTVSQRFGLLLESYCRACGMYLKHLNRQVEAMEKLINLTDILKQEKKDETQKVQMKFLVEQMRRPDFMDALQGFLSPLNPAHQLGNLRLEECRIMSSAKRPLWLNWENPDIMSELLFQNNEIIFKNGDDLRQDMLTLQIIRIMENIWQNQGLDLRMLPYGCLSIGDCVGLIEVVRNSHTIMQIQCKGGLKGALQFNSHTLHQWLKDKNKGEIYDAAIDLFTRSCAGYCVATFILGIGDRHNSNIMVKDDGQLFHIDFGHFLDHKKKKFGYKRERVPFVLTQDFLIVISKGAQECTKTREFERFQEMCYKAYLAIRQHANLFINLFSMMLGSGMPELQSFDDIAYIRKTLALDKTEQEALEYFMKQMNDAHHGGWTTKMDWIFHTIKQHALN
UniProt Q96SB4, sequence (whole entry, looked up): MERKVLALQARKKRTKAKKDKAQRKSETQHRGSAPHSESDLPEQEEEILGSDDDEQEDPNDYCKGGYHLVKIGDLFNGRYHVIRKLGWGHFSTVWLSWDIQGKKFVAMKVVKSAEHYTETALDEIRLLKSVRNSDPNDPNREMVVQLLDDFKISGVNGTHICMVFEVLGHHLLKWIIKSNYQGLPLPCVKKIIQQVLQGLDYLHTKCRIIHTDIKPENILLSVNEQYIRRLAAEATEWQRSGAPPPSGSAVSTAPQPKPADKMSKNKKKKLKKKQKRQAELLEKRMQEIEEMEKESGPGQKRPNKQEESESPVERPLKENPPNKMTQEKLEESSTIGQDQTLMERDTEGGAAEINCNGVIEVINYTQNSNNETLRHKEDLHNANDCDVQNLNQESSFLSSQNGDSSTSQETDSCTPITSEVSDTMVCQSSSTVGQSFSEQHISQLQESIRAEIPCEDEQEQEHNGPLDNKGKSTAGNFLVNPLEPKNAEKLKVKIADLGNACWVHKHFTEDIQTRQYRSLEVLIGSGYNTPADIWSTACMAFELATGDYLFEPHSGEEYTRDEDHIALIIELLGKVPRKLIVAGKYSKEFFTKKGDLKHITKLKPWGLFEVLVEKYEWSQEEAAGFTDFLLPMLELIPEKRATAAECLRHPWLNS
UniProt P21709, sequence (whole entry, looked up): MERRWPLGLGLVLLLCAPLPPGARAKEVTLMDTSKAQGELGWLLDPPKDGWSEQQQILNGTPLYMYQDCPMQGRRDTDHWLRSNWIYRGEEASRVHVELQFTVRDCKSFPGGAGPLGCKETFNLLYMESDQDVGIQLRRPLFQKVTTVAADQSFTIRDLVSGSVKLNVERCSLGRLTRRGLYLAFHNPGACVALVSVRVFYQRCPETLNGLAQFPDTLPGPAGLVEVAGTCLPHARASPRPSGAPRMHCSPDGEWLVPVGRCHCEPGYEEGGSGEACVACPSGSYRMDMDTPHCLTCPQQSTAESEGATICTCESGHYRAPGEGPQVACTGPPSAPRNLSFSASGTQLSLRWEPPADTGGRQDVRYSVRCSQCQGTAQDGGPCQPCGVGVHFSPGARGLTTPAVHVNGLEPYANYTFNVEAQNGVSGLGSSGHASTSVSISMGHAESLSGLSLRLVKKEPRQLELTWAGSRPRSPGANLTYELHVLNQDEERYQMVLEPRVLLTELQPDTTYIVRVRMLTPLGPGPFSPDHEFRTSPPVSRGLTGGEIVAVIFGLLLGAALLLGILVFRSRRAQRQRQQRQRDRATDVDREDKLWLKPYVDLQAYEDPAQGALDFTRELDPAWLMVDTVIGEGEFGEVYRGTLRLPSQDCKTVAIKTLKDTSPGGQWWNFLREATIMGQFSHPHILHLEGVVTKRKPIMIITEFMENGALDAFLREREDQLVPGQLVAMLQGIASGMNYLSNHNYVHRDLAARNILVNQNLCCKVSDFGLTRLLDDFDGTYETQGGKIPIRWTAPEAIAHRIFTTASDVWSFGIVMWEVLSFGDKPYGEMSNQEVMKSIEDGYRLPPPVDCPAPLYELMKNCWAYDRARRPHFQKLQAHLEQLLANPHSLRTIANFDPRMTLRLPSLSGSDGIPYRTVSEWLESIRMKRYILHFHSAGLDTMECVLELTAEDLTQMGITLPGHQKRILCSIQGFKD

| Compound | target | test | setting | how to read | measurement | value |
| --- | --- | --- | --- | --- | --- | --- |
| COc1cc(-c2cncc3c2CN(C)Cc2cc(N4CCNCC4)ccc2-3)cc(OC)c1OC | Ephrin type-A receptor 1 (EPHA1, Homo sapiens, UniProt P21709) | kinase activity | 1 µM, human enzyme, with: ATP 10 µM | baseline: DMSO control | remaining activity | 90% |
| COc1cc(F)ccc1-c1ncnc(Nc2cccc(C[S@](C)(=N)=O)c2)n1 | SRSF protein kinase 1 (SRPK1, Homo sapiens, UniProt Q96SB4) | kinase activity | 10 µM, with: 10 µM ATP |  | remaining activity | 119% |
| N#CC(=Cc1cc([N+](=O)[O-])ccc1Cl)C(N)=O | UCHL1 | covalent, intact protein LC-MS | 12.5 µM |  | labelling | 31.5% |
| Cc1ccc(NS(=O)(=O)c2ccc(F)cc2O)cc1N1CCOC1=O | malate dehydrogenase | enzyme activity, inhibitor | 200 µM, pH 7.0, 1% DMSO, aggregation counter-screen |  | remaining activity | 99% |
| O=C(O)c1ccc(Nc2ncc3c(n2)-c2ccc(Cl)cc2C(c2c(F)cccc2F)=NC3)cc1 | human SIK(h) | kinase activity | 1 µM |  | remaining activity | 66% |
| Cc1cc(Nc2cc(N3CCN(C)CC3)nc(Sc3ccc(NC(=O)C4CC4)cc3)n2)[nH]n1 | Serine/threonine-protein kinase ULK2 (ULK2, Homo sapiens, UniProt Q8IYT8) | kinase activity, KinaseProfiler | 0.03 µM, species human | baseline: control | remaining activity | 101% |
| COc1cc(Nc2ncc3c(n2)-c2ccc(Cl)cc2C(c2c(F)cccc2OC)=NC3)ccc1C(=O)O | PRKD2 | kinase activity | 1 µM |  | remaining activity | 99% |
| O=S(=O)(NCc1coc2ccc(F)cc12)c1cc(Cl)cc(Cl)c1O | malate dehydrogenase | enzyme activity, inhibitor | 200 µM, pH 7.0, 1% DMSO, aggregation counter-screen |  | remaining activity | 74% |
| C=CC(=O)N1CCC[C@@H](n2nc(-c3ccc(Oc4ccccc4)cc3)c3c(N)ncnc32)C1 | Serine/threonine-protein kinase tousled-like 2 (TLK2, Homo sapiens, UniProt Q86UE8) |  | 0.1 µM |  | remaining activity | 29.5% |
| O=C(NC1CCC1)c1ccc2nc(-c3cccc(NS(=O)(=O)NCCN4CCCCC4)c3)cn2c1 | Phosphatidylinositol 4,5-bisphosphate 3-kinase catalytic subunit alpha isoform (PIK3CA, Homo sapiens, UniProt P42336, H1047L) | enzyme activity | 10 µM |  | remaining activity | 93% |
| Cc1ccccc1NC(=O)C(C#N)=Cc1ccccc1Cl | UCHL1 | covalent, intact protein LC-MS | 12.5 µM |  | labelling | 36.8% |
| CON(C)C(=O)[C@H](CCSC)NS(=O)(=O)c1cccc(Cl)c1O | malate dehydrogenase | enzyme activity, inhibitor | 200 µM, pH 7.0, 1% DMSO, aggregation counter-screen |  | remaining activity | 84% |

For quick reference, copied from above:
| Compound | target | test | setting | how to read | measurement | value |
| --- | --- | --- | --- | --- | --- | --- |
| O=S(=O)(NCc1coc2ccc(F)cc12)c1cc(Cl)cc(Cl)c1O | malate dehydrogenase | enzyme activity, inhibitor | 200 µM, pH 7.0, 1% DMSO, aggregation counter-screen |  | remaining activity | 74% |
| Cc1ccc(NS(=O)(=O)c2ccc(F)cc2O)cc1N1CCOC1=O | malate dehydrogenase | enzyme activity, inhibitor | 200 µM, pH 7.0, 1% DMSO, aggregation counter-screen |  | remaining activity | 99% |
